{"data": "Published values collected from several papers", "note": "Each numbered part is a random draw from the data of one study; scales do not carry over between parts. Several values in a cell are separate wells, animals, samples, runs or records.", "chain of UniProt P08173 (whole entry, looked up)": "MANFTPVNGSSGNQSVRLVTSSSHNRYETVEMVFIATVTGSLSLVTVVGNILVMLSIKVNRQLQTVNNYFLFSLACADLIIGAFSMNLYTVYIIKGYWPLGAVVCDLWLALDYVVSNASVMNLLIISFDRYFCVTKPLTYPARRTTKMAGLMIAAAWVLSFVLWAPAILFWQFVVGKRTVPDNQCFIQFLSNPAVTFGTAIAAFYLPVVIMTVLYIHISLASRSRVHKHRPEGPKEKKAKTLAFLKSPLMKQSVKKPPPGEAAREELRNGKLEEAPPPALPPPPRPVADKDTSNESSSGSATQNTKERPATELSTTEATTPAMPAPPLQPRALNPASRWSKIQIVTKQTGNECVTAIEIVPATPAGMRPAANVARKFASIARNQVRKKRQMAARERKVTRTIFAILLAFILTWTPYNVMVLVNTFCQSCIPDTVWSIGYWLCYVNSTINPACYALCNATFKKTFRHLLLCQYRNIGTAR", "chain of UniProt P13945 (whole entry, looked up)": "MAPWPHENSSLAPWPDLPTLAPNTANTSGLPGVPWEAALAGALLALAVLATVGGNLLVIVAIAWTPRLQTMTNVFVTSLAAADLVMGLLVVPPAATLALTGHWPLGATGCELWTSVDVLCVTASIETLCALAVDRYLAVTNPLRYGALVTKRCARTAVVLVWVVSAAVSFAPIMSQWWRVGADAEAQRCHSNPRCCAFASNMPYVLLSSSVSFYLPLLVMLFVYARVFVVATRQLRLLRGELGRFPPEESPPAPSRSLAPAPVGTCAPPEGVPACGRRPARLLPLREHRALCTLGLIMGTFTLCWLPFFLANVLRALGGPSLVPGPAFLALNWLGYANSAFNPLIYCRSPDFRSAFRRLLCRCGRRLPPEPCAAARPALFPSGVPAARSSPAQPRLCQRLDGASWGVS", "chain of UniProt P08912 (whole entry, looked up)": "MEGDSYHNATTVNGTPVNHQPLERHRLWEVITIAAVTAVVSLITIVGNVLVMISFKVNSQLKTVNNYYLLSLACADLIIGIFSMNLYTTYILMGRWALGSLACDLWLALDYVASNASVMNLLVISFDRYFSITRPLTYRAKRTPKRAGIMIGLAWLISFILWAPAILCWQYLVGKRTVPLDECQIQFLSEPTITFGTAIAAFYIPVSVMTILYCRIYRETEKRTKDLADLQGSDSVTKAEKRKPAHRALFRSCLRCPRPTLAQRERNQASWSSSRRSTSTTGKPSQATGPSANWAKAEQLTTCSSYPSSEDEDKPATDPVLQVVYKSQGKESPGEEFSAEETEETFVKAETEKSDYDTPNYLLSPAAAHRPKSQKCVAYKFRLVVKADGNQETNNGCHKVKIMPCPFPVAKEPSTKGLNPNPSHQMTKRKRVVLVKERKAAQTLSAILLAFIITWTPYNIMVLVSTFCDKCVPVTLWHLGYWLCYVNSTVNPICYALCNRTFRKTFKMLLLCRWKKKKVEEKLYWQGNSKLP", "chain of UniProt P08913 (whole entry, looked up)": "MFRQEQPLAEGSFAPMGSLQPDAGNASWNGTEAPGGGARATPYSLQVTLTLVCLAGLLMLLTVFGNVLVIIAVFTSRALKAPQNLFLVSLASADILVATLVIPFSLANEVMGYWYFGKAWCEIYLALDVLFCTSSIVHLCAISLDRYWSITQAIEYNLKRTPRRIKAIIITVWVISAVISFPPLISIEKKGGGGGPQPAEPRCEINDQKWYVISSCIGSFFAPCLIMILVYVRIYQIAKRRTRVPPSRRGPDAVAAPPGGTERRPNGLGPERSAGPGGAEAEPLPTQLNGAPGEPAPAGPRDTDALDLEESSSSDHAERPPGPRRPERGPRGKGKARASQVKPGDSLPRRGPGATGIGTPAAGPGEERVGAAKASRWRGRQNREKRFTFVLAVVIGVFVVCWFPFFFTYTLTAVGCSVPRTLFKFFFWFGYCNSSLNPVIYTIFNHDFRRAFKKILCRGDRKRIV", "chain of UniProt Q01718 (whole entry, looked up)": "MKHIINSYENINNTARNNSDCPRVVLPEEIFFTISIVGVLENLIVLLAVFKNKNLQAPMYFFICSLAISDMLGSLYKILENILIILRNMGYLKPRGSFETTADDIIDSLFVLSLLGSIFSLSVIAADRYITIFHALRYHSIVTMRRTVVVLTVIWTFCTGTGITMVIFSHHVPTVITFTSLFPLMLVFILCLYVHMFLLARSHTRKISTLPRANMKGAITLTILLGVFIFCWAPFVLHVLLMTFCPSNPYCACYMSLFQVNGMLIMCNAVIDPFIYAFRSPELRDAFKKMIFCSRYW", "chain of UniProt P50406 (whole entry, looked up)": "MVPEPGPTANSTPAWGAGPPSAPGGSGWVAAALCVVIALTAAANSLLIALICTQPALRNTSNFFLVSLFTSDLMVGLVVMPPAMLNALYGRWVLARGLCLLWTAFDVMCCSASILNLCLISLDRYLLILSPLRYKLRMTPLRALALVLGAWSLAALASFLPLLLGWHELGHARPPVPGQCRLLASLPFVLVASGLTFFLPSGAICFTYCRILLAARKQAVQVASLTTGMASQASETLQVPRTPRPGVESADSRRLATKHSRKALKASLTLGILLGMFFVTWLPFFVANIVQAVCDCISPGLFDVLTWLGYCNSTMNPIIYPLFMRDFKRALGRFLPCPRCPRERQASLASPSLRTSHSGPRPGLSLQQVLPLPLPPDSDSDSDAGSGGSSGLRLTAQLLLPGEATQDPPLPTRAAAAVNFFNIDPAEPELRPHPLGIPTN", "chain of UniProt P08588 (whole entry, looked up)": "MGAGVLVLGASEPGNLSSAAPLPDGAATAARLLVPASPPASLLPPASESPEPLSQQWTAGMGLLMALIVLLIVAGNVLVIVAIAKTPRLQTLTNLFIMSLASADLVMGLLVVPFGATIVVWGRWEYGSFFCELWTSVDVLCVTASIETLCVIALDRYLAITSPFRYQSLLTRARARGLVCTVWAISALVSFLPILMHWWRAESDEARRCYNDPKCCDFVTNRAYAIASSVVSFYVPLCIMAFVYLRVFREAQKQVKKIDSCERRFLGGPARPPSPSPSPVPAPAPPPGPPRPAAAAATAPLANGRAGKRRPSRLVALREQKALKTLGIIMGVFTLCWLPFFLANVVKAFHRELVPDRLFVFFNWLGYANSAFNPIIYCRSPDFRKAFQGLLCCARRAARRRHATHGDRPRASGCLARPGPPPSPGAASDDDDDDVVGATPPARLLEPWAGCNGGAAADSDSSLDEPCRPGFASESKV", "chain of UniProt Q8TDS5 (whole entry, looked up)": "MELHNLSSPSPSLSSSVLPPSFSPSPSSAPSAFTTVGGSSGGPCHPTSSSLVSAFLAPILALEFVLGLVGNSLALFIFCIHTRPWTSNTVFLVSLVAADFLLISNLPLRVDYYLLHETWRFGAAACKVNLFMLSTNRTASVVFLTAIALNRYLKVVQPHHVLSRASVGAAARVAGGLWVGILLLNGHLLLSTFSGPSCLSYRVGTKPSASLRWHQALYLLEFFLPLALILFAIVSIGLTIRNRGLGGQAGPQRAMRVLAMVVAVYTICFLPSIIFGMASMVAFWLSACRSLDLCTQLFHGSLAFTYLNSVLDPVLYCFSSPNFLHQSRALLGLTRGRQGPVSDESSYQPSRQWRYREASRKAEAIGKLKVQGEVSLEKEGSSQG", "chain of UniProt P46095 (whole entry, looked up)": "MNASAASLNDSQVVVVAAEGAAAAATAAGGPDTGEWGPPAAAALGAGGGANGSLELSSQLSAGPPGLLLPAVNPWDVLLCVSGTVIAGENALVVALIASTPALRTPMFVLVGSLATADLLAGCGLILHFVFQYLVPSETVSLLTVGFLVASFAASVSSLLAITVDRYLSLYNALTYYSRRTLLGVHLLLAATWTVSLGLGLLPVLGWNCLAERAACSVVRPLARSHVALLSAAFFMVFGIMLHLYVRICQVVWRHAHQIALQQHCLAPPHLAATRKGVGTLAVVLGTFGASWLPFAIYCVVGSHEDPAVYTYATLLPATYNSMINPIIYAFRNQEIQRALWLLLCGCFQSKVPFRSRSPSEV"}
{"data": "Set 1", "target": "Serine/threonine-protein kinase pim-1 (PIM1, Homo sapiens, UniProt P11309)", "effect on": "enzyme activity", "action": "inhibitor", "tested at": "0.5 µM", "reference": "control", "chain of UniProt P11309 (whole entry, looked up)": "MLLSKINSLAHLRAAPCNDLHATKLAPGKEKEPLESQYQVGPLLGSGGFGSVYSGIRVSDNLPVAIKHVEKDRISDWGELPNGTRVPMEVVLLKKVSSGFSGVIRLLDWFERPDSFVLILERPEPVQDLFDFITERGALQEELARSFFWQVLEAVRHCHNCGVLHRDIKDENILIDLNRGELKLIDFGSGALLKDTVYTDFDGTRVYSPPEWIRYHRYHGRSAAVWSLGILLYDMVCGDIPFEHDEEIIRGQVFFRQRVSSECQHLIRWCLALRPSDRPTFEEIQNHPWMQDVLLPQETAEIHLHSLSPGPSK"}
{"Compound": "Cc1cc(Nc2cc(N3CCN(C)CC3)nc(Sc3ccc(NC(=O)C4CC4)cc3)n2)[nH]n1", "remaining activity": "98.6%"}
{"Compound": "N#Cc1cnc2cnc(NCc3cccnc3)cc2c1Nc1ccc(F)c(Cl)c1", "remaining activity": "92.7%"}
{"Compound": "c1ccc(-c2n[nH]c3c2oc2ccccc23)cc1", "remaining activity": "83.3%"}
{"Compound": "O=C1Nc2ccccc2/C1=C\\c1c(Cl)[nH]c2ccccc12", "remaining activity": "88.5%"}
{"Compound": "O=C(c1cc2cc(O)ccc2[nH]1)c1cc2cc(O)ccc2[nH]1", "remaining activity": "76.1%"}
{"Compound": "c1ccc2c(-c3ccncc3)c[nH]c2c1", "remaining activity": "93.5%"}
{"Compound": "CN1CCN(c2ccc3nc(-c4c(N)c5c(F)cccc5[nH]c4=O)[nH]c3c2)CC1", "remaining activity": "99.2%"}
{"Compound": "O=C1Cc2c([nH]c3ccc(Br)cc23)-c2ccccc2N1", "remaining activity": "96.8%"}
{"Compound": "O=Nc1c(-c2c(O)[nH]c3cc(Br)ccc23)[nH]c2ccccc12", "remaining activity": "96.1%"}
{"Compound": "CCCNC(=O)Nc1ccc(Oc2ncnc3cc(OC)c(OC)cc23)cc1Cl", "remaining activity": "102%"}
{"Compound": "CCCCc1c(-c2ccc(OC)cc2)[nH]c2nccnc12", "remaining activity": "97%"}
{"Compound": "CN(C)S(=O)(=O)c1ccc2c(c1)/C(=C/c1cc3c([nH]1)CCCC3)C(=O)N2", "remaining activity": "101%"}
{"Compound": "O=C1NC(=O)c2c1c1c3ccccc3[nH]c1c1[nH]c3cc(Br)ccc3c21", "remaining activity": "8.84%"}
{"Compound": "O=C1NC(=O)c2c1c1c3ccccc3[nH]c1n1cncc21", "remaining activity": "1.43%"}
{"Compound": "COc1ccc(COc2ccc(Cc3cnc(N)nc3N)cc2OC)cc1", "remaining activity": "104%"}
{"Compound": "Oc1cccc(-c2nc(N3CCOCC3)c3oc4ncccc4c3n2)c1", "remaining activity": "91.2%"}
{"Compound": "O=C1Nc2ccc(Br)cc2/C1=C/c1cc2c([nH]1)CCCC2", "remaining activity": "101%"}
{"Compound": "COc1ccc2c(c1)c(C1=C(c3c[nH]c4ccccc34)C(=O)NC1=O)cn2CCCN(C)C", "remaining activity": "11.6%"}
{"Compound": "Cc1ccc(S(=O)(=O)/C=C/C#N)cc1", "remaining activity": "101%"}
{"Compound": "COc1cccc(-c2cc(=O)c3ccccc3o2)c1N", "remaining activity": "93.9%"}
{"data": "Set 2", "target": "Calcium/calmodulin-dependent protein kinase type II subunit alpha (CAMK2A, Homo sapiens, UniProt Q9UQM7)", "effect on": "enzyme activity", "action": "inhibitor", "tested at": "10 µM", "chain of UniProt Q9UQM7 (whole entry, looked up)": "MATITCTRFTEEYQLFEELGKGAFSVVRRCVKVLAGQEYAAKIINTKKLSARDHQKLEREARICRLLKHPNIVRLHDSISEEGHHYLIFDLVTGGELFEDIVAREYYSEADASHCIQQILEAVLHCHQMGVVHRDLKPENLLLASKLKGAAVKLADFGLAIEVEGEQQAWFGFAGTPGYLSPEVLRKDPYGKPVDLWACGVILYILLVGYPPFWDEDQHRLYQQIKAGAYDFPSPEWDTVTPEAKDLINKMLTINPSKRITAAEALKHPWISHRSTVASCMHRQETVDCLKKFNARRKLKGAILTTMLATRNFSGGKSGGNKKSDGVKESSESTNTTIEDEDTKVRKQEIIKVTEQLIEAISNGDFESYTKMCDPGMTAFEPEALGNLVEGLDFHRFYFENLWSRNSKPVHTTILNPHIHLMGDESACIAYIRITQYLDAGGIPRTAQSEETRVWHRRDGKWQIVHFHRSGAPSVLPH"}
{"SMILES": "CCOc1ccc(Cc2cc([C@@H]3O[C@H](SC)[C@@H](O)[C@H](O)[C@H]3O)ccc2Cl)cc1", "inhibition": "-12%"}
{"SMILES": "O=C(/C=C/c1ccc(O)cc1)OC[C@H]1O[C@@H](Oc2c(-c3ccc(O)cc3)oc3cc(O)cc(O)c3c2=O)[C@H](O)[C@@H](O)[C@@H]1O", "inhibition": "-0.2% and -0.74%"}
{"SMILES": "S=c1nc[nH]c2nc[nH]c12", "inhibition": "-0.07% and 0.06%"}
{"SMILES": "C=C(C)[C@@H]1CC[C@]2(C(=O)O)CC[C@]3(C)[C@H](CC[C@@H]4[C@@]5(C)CC[C@H](O)C(C)(C)[C@@H]5CC[C@]43C)[C@@H]12", "inhibition": "-84%"}
{"SMILES": "COc1c(O)c2c(=O)cc(OC)c3c4c(OC)cc(=O)c5c(O)c(OC)c6c(c(c1CC(C)=C6C(C)=O)c23)c54", "inhibition": "10%"}
{"SMILES": "O=C(OCCOCCO)c1ccccc1Nc1cccc(C(F)(F)F)c1", "inhibition": "-8%"}
{"SMILES": "CC1=COC(=O)[C@H]2[C@@H]1CC[C@@H]2C", "inhibition": "-63%"}
{"SMILES": "OC[C@@H](O)[C@@H](O[C@@H]1O[C@H](CO)[C@H](O)[C@H](O)[C@H]1O)[C@H](O)[C@@H](O)CO", "inhibition": "-2%"}
{"SMILES": "C[C@@H](O)CO", "inhibition": "-20%"}
{"SMILES": "O=c1c(O[C@@H]2O[C@@H](CO)[C@H](O)[C@H]2O)c(-c2ccc(O)c(O)c2)oc2cc(O)cc(O)c12", "inhibition": "-10%"}
{"SMILES": "O=C(O)CCCCCCCCCCCCCCC(=O)O", "inhibition": "2%"}
{"data": "Set 3", "Structure (SMILES)": "N=C(N)NC(=O)c1cnn(-c2cccc3ncccc23)c1C1CC1", "effect on": "β-arrestin recruitment", "action": "agonist", "technique": "PRESTO-Tango", "tested at": "10 µM", "reference": "untreated"}
{"target": "C5a anaphylatoxin chemotactic receptor 2 (C5AR2, Homo sapiens, UniProt Q9P296)", "fold over basal": 1.1}
{"target": "P2Y purinoceptor 13 (P2RY13, Homo sapiens, UniProt Q9BPV8)", "fold over basal": 1.15}
{"target": "Adrenocorticotropic hormone receptor (MC2R, Homo sapiens, UniProt Q01718)", "fold over basal": 1.29}
{"target": "Melatonin-related receptor (GPR50, Homo sapiens, UniProt Q13585)", "fold over basal": 1.07}
{"target": "Neuropeptide S receptor (NPSR1, Homo sapiens, UniProt Q6W5P4)", "fold over basal": 1.13}
{"target": "C-X-C chemokine receptor type 6 (CXCR6, Homo sapiens, UniProt O00574)", "fold over basal": 0.98}
{"target": "Oxoeicosanoid receptor 1 (OXER1, Homo sapiens, UniProt Q8TDS5)", "fold over basal": 1.11}
{"target": "Relaxin-3 receptor 1 (RXFP3, Homo sapiens, UniProt Q9NSD7)", "fold over basal": 1.29}
{"target": "Histamine H4 receptor (HRH4, Homo sapiens, UniProt Q9H3N8)", "fold over basal": "1.13 fold"}
{"target": "Metabotropic glutamate receptor 7 (GRM7, Homo sapiens, UniProt Q14831)", "fold over basal": "0.74 fold"}
{"target": "MRGPRD (Homo sapiens, UniProt Q8TDS7)", "fold over basal": 0.86}
{"target": "G-protein coupled receptor 6 (Homo sapiens, UniProt P46095)", "fold over basal": 1.09}
{"data": "Set 4", "Compound": "CC(C)(C)OC(=O)N1CCCC1CNC1CCC(c2cc(F)ccc2F)(S(=O)(=O)c2ccc(Cl)cc2)CC1 (stereo not drawn)", "effect on": "cell-free assay", "tested at": "10 µM"}
{"target": "Muscarinic acetylcholine receptor M5 (CHRM5, Homo sapiens, UniProt P08912)", "inhibition": "26.5%"}
{"target": "Beta-3 adrenergic receptor (ADRB3, Homo sapiens, UniProt P13945)", "inhibition": "25.6%"}
{"target": "Muscarinic acetylcholine receptor M4 (CHRM4, Homo sapiens, UniProt P08173)", "inhibition": "25.6%"}
{"target": "Alpha-2B adrenergic receptor (ADRA2B, Homo sapiens, UniProt P18089)", "inhibition": "77.4%"}
{"target": "D(3) dopamine receptor (DRD3, Homo sapiens, UniProt P35462)", "inhibition": "86.1%"}
{"target": "Beta-1 adrenergic receptor (ADRB1, Homo sapiens, UniProt P08588)", "inhibition": "3.61%"}
{"target": "D(1A) dopamine receptor (DRD1, Homo sapiens, UniProt P21728)", "inhibition": "13.8%"}
{"target": "5-hydroxytryptamine receptor 6 (HTR6, Homo sapiens, UniProt P50406)", "inhibition": "37.1%"}
{"target": "Alpha-2A adrenergic receptor (ADRA2A, Homo sapiens, UniProt P08913)", "inhibition": "82.3%"}
{"target": "D(2) dopamine receptor (DRD2, Homo sapiens, UniProt P14416)", "inhibition": "83%"}
{"target": "Alpha-2C adrenergic receptor (ADRA2C, Homo sapiens, UniProt P18825)", "inhibition": "81.4%"}
{"note": "A few entries again (set 1):"}
{"Compound": "CN1CCN(c2ccc3nc(-c4c(N)c5c(F)cccc5[nH]c4=O)[nH]c3c2)CC1", "remaining activity": "99.2%"}
{"Compound": "O=C1NC(=O)c2c1c1c3ccccc3[nH]c1c1[nH]c3cc(Br)ccc3c21", "remaining activity": "8.84%"}
{"Compound": "O=Nc1c(-c2c(O)[nH]c3cc(Br)ccc23)[nH]c2ccccc12", "remaining activity": "96.1%"}
{"Compound": "CN(C)S(=O)(=O)c1ccc2c(c1)/C(=C/c1cc3c([nH]1)CCCC3)C(=O)N2", "remaining activity": "101%"}
{"Compound": "COc1cccc(-c2cc(=O)c3ccccc3o2)c1N", "remaining activity": "93.9%"}
